Results gathered from unrelated publications.
Each line is one published result; not all experiments were run side by side. ± gives the spread as reported.

The body weight of `CC(C)[C@@H]1NC(=O)[C@H](Cc2ccccc2)NC(=O)[C@H](Cc2ccc(O)cc2)NC(=O)CCSSC[C@@H](C(=O)N2CCC[C@H]2C(=O)N[C@H](CCCNC(=N)N)C(=O)NCC(N)=O)NC(=O)[C@H](CCC(N)=O)NC1=O` is reported as 226 ± 10.9 g (Wistar rat; intravenous, 10 µg/kg single dose, 72 h).
For `CC(C)[C@H](NC(=O)CNC(=O)[C@H](CCC(N)=O)NC(=O)[C@H](C)N)C(=O)O`, “unrelated adverse events” read 33.3% (human; single dose, 10 mg/kg, unlikely related or unrelated).
Under “parent drug release”, `C#Cc1c(F)ccc2cc(O)cc(-c3ncc4c(N5CC6CCC(C5)N6C(=O)CC(C)CC(=O)OCC)nc(OC[C@@]56CCCN5C[C@H](F)C6)nc4c3F)c12` (stereo partly shown) is recorded as “not detected” (mouse liver microsomes; 60 min, added: NADPH).
With `CC(C)C[C@H](NC(=O)[C@H](CCCCN)NC(=O)[C@H](CCC(=O)O)NC(=O)[C@H](C)NC(=O)[C@@H](NC(=O)[C@H](CCCCN)NC(=O)[C@H](CC(=O)O)NC(=O)[C@H](Cc1ccc(O)cc1)NC(=O)[C@H](Cc1ccccc1)NC(=O)[C@H](C)NC(=O)[C@H](CCCCN)NC(=O)[C@H](CC(C)C)NC(=O)[C@H](Cc1c[nH]c2ccccc12)NC(=O)[C@@H](N)CC(=O)O)C(C)C)C(=O)N[C@@H](CCCCN)C(=O)N[C@@H](CCC(=O)O)C(=O)N[C@@H](C)C(=O)N[C@@H](Cc1ccccc1)C(=O)N1CCC[C@H]1C(=O)N[C@@H](CC(=O)O)C(=O)N[C@@H](Cc1c[nH]c2ccccc12)C(=O)N[C@@H](C)C(=O)N[C@@H](CCCCN)C(=O)N[C@@H](C)C(=O)N[C@@H](C)C(=O)N[C@@H](Cc1ccc(O)cc1)C(=O)N[C@@H](CC(=O)O)C(=O)N[C@@H](CCCCN)C(=O)N[C@@H](C)C(=O)N[C@@H](C)C(=O)N[C@@H](CCC(=O)O)C(=O)N[C@@H](CCCCN)C(=O)N[C@@H](C)C(=O)N[C@@H](CCCCN)C(=O)N[C@@H](CCC(=O)O)C(=O)N[C@@H](C)C(=O)N[C@@H](C)C(=O)O` the Tmax was 0 h (cynomolgus monkey female, plasma; intravenous infusion, 25 mg/kg every other day, day 27).
`CC[C@@H]1C[C@]1(NC(=O)[C@@H]1C[C@@]2(CN1C(=O)[C@@H](NC(=O)[C@@H](NC(=O)[C@@H]1CCCCN1C(C)C)C1CCCCC1)C(C)(C)C)C(C)(C)C21CCC1)C(=O)NS(=O)(=O)N1CCCC1` — result for “subjects with adverse event”: 0% (refers to: Pain; human; oral, 50 mg, simultaneous dosing on day 2, added: ritonavir 100 mg).
`C[C@]12CC[C@H](O)CC1CCC1C2[C@H](O)C(=O)[C@]2(C)[C@@H](c3ccc(=O)oc3)CC[C@]12O` (stereo partly shown): sulfation activity “inactive” (substrate; dog liver cytosol; concentration not given).
Under toxicity, `[Cl-].[Cl][Ru-4]123([n+]4ccccc4-c4cc(-c5ccccc5)cc([n+]41)-c1cccc[n+]12)[n+]1ccc(-c2ccccc2)c2ccc4c(-c5ccccc5)cc[n+]3c4c21` is recorded as “not toxic” (zebrafish embryos; 20 µM).
With `CSCC[C@@H]1NC(=O)[C@@H]2CSSC[C@H](NC(=O)[C@H](CO)NC(=O)[C@H](C)N)C(=O)N[C@@H](CCCNC(=N)N)C(=O)N[C@@H]([C@@H](C)O)C(=O)N3CCC[C@H]3C(=O)N[C@@H](CCCCN)C(=O)N[C@@H](CC(=O)O)C(=O)N[C@H]3CSSC[C@H](NC(=O)[C@H](CCCCN)NC(=O)[C@H](CCCNC(=N)N)NC(=O)[C@H](CC(N)=O)NC1=O)C(=O)N[C@@H](CCCCN)C(=O)N[C@H]1CSSC[C@H](NC(=O)[C@@H]4CCCN4C(=O)[C@H](CC(=O)O)NC(=O)[C@H](C)NC3=O)C(=O)N[C@@H](C)C(=O)N[C@@H](CCCCN)C(=O)N[C@@H](CCC(=O)O)C(=O)N[C@@H]([C@@H](C)O)C(=O)NCC(=O)N[C@@H](CSSC[C@@H](C(N)=O)NC(=O)[C@H](CCCNC(=N)N)NC(=O)[C@H](CC(N)=O)NC1=O)C(=O)N1CCC[C@H]1C(=O)N[C@@H](Cc1ccc(O)cc1)C(=O)NCC(=O)N[C@@H](CCCCN)C(=O)N2` the albumin was 3.76 g/dL (DA rat, pristane-induced arthritis, serum; subcutaneous, single 0.1 mg/kg at onset, end of 21-day trial).
`CC(C)(O)c1ccccc1CC[C@H](c1cccc(/C=C/c2ccc3ccc(Cl)cc3n2)c1)[S+]([O-])CC1(CC(=O)O)CC1` (stereo partly shown) has a percent metabolized of 0% (human liver mitochondrial preparation; 1 µM, 30 min, 0.5 mg/mL protein).
The helicity of `CC(C)C[C@H](NC=O)C(=O)N[C@@H](C)C(=O)N[C@@H](C)C(=O)N[C@@H](CC(=O)O)C(=O)N[C@@H](CC(C)C)C(=O)N[C@@H](CC(C)C)C(=O)N[C@@H](C)C(=O)N[C@@H](C)C(=O)N[C@@H](CC(C)C)C(=O)NCC(=O)N[C@@H](CC(=O)O)C(=O)N[C@@H](CC(C)C)C(=O)N[C@@H](CC(C)C)C(=O)N[C@@H](CCCCN)C(=O)N[C@@H](Cc1c[nH]c2ccccc12)C(=O)N[C@@H](CC(C)C)C(=O)N[C@@H](CC(C)C)C(=O)N[C@@H](CC(=O)O)C(=O)N[C@@H](C)C(=O)N[C@@H](CC(C)C)C(=O)N[C@@H](C)C(=O)N[C@@H](CCCCN)C(=O)N[C@@H](CC(C)C)C(=O)N[C@@H](C)C(=O)N[C@@H](CCCCN)C(=O)N[C@@H](CCCCN)C(=O)O` (racemic) is reported as 59% (circular dichroism; phosphate buffer 10 mM; 1 to 5 µM, pH 7.5, approximate).
With `[2H]C([2H])([2H])C([2H])([2H])C([2H])([2H])OC(C(=O)OC1CCNCC1)(c1ccccc1)c1ccccc1` the adverse events was 14.3% (refers to: headache; healthy Japanese male; oral, 10 mg, 16 days, multiple ascending dose).
Under “subjects with any AE”, `CC(C)[C@H](NC(=O)CNC(=O)[C@H](CCC(N)=O)NC(=O)[C@H](C)N)C(=O)O` is recorded as 25% (healthy male volunteers; intravenous, 15 mg/kg/h, 2 h, added: LPS 2 ng/kg).
For `O=C(NC1CCCCC1)Oc1cccc(-c2cccc(CO)c2)c1`, “log hydrolysis rate constant” read -1.39 (rat liver S9 fraction; added: NADPH-regenerating system).
`COc1cc(NC(=O)C(=O)c2c(C)n(Cc3ccc(Cl)cc3)c3ccc(C)cc23)ccn1` gave a Vss of 8.38 L/kg (female cynomolgus monkey, plasma; intravenous, 1 mg/kg, mean).
With `C[C@@H](O)[C@H](NC(=O)[C@H](CCCCN)NC(=O)COCCN)C(=O)N[C@@H](CCCNC(=N)N)C(=O)NC(C)(C)C(=O)N[C@@H](CCCNC(=N)N)C(=O)NC(C)(C)C(=O)N[C@H](C(=O)N[C@@H](CO)C(=O)N[C@@H](Cc1c[nH]cn1)C(=O)N[C@@H](Cc1ccc(O)cc1)C(=O)NCC(=O)O)[C@@H](C)O` the haematocrit was 35 to 45% (C57BL/6 mouse, blood; intravenous, 50 mg/kg, 10 h).
`CC[C@H](C)C(=O)N1CCC(NC(=O)Nc2ccc(OC(F)(F)F)c(F)c2)CC1`: “subjects with extrasystoles TEAE” 16.7% (healthy volunteers; oral, 2 mg single dose, ventricular extrasystoles).
For `CCCCCCCC(=O)NCCCC[C@H](NC(=O)[C@H](Cc1ccccc1)NC(=O)[C@@H](CCCNC(=N)N)NC(=O)[C@@H](N)Cc1ccc(O)cc1)C(N)=O`, the AUC(0-inf) was 1050 ng·h/mL (LC-MS/MS; CD-1 mouse, male, plasma; intravenous, 3 mg/kg).
For `COC(=O)C[C@](O)(CCCC(C)(C)OC(C)=O)C(=O)O[C@@H]1C(OC)=C[C@]23CCCN2CCc2cc4c(cc2[C@H]13)OCO4`, the tissue concentration was 289 ng/mL (CD1 mouse, spleen; oral, 1 mg/kg, 0.5 h).
For `[3H]c1sc(C)nc1C=C(C)C1CC2C(CCCC(C)C(O)C(C)C(=O)C(C)(C)C(O)CC(=O)O1)N2CCO` (stereo not shown), “radioactivity in tissue” read 10.2 ± 8.4 µg-eq/g (whole-body autoradiography; CD2F1 mice, intestine contents; intravenous, 2.2 nmol/kg, 48 h).
Under liver enzymes, `CCCC[C@@H]1NC(=O)[C@H](Cc2ccc(O)cc2)NC(=O)[C@@H]2CCCN2C(=O)[C@H](CC(=O)O)NC(=O)[C@H](C)NC(=O)[C@H](Cc2ccccc2)NC(=O)[C@@H]2CSCCC(=O)N3CN(CN(C3)C(=O)CCSC[C@@H](C(=O)N[C@@H](C)C(N)=O)NC1=O)C(=O)CCSC[C@H](NC(C)=O)C(=O)N[C@@H](CC(C)(C)C)C(=O)N1CCC[C@H]1C(=O)N[C@@H](CCC(=O)O)C(=O)N[C@H](CCCCNC(=O)CCc1cn(CCOCCOCCOCCN(CCOCCOCCOCCC(=O)N[C@H]3CSCCC(=O)N4CN5CN(C4)C(=O)CCSC[C@H](NC(=O)[C@@H](CC(=O)O)NC(=O)[C@H](Cc4cccc6ccccc46)NC(=O)[C@@H]4CCCN4C3=O)C(=O)N[C@@H](CCSC)C(=O)N[C@@H](CCCCNC(=N)N)C(=O)N[C@@H](CC(=O)O)C(=O)N[C@@H](Cc3c[nH]c4ccccc34)C(=O)N[C@@H](CO)C(=O)N[C@@H]([C@@H](C)O)C(=O)N3CCC[C@H]3C(=O)N3C[C@H](O)C[C@H]3C(=O)N[C@@H](Cc3c[nH]c4ccccc34)C(=O)N[C@H](C(N)=O)CSCCC5=O)CCOCCOCCOCCn3cc(CCC(=O)NCCCC[C@H]4NC(=O)[C@H](CCC(=O)O)NC(=O)[C@@H]5CCCN5C(=O)[C@H](CC(C)(C)C)NC(=O)[C@@H](NC(C)=O)CSCCC(=O)N5CN6CN(C5)C(=O)CCSC[C@H](NC(=O)[C@H](Cc5ccc(O)cc5)NC(=O)[C@@H]5CCCN5C4=O)C(=O)N[C@@H](Cc4ccccc4)C(=O)N[C@@H](C)C(=O)N[C@@H](CC(=O)O)C(=O)N4CCC[C@H]4C(=O)N[C@@H](Cc4ccc(O)cc4)C(=O)N[C@@H](CCCC)C(=O)N[C@H](C(=O)N[C@@H](C)C(N)=O)CSCCC6=O)nn3)nn1)C(=O)N1CCC[C@H]1C(=O)N[C@@H](Cc1ccc(O)cc1)C(=O)N2` is recorded as “no effect” (refers to: ALT, AST, alkaline phosphatase; mouse, CT26-Nectin-4 syngeneic tumour, blood; dose not given, day 15).
For `CCCCCCCCCCCCC(=O)O.O=C1CCCC2C3CCCN4CCCC(CN12)C34` (stereo not shown), “log octanol-water partition coefficient” read -0.07 (shake-flask; simulated intestinal fluid; pH 6.8, 25 °C).
The half-life of `CC(COC(=O)c1ccccc1)OC(=O)C(N)C(C)C` (mixture of isomers) is reported as greater than 30 h (isotonic buffer; pH 4.0, 37 °C).
